Measurements collected from several papers.
Lines come from different studies, so protocols differ. Values joined by “and” are separate records of one study, mostly repeats; a detail may differ. Numbers after ± are the reported error.

CCN(CCCCOc1ccc(CCC(=O)N2CCC(Cc3ccccc3)CC2)cc1OC)Cc1ccccc1 — excreted amount (Sprague-Dawley rats, both sexes, faeces; oral gavage, 25 mg/kg, 6 to 12 h): 13300 ± 2690 ng
COc1ccc(CNc2ccc3c(c2)S(=O)(=O)C=C3)cc1 — mean corpuscular haemoglobin (male C57BL/6 mice, blood; intraperitoneal, 5 mg/kg, day 8, group average): 15.1 pg
COc1c(N2CC3CCCNC3C2)c(F)cc2c(=O)c(C(=O)OCc3ccc([N+](=O)[O-])s3)cn(C3CC3)c12 (stereo not drawn) — reduction potential (cyclic voltammetry; anhydrous acetonitrile; concentration not given; baseline: Ag/AgCl): -0.88 V
CC(CCC(=O)NCC(=O)O)C1CCC2C3CCC4CC(OC5OC(C(=O)O)C(O)C(O)C5O)CCC4(C)C3CC(O)C12C (stereo not drawn) — ratio of metabolic ratios (refers to: glucuronide to parent ratio; men, plasma; dose not given; baseline: C/C over T/T): 4.68
CC[C@H](C)[C@H](NC(=O)[C@H](CCCCN)NC(=O)CNC(=O)[C@H](CC(C)C)NC(=O)[C@H](Cc1ccccc1)NC(=O)[C@H](CCCCN)NC(=O)[C@H](CO)NC(=O)[C@H](Cc1ccccc1)NC(=O)[C@H](Cc1c[nH]c2ccccc12)NC(=O)[C@H](CCC(N)=O)NC(=O)[C@@H](NC(=O)[C@H](Cc1ccccc1)NC(=O)CCCCCNC(=O)CN1CCN(CC(=O)O)CCN(CC(=O)O)CCN(CC(=O)O)CC1)C(C)C)C(=O)N[C@@H](CCC(=O)O)C(=O)N1CCC[C@H]1C(=O)N[C@@H](CC(=O)O)C(=O)N[C@H](C(=O)N[C@@H](CO)C(=O)N[C@@H](CCC(N)=O)C(=O)N[C@H](C(=O)N[C@@H](CCC(N)=O)C(=O)N[C@@H](CC(=O)O)C(=O)N1CCC[C@H]1C(=O)N[C@@H](CC(N)=O)C(=O)N[C@@H](CC(=O)O)C(=O)N[C@@H](CCC(N)=O)C(=O)N[C@@H](Cc1ccc(O)cc1)C(=O)N[C@@H](CCC(=O)O)C(=O)N1CCC[C@H]1C(=O)N[C@@H](Cc1ccccc1)C(=O)O)C(C)C)C(C)C [copper-64 labelled] — tissue uptake (C57BL/6 male mouse, tumour-naive, bone; 4 h): 1.46 ± 0.3 %ID/g
O=C1NC2(CC2)COc2ncc(F)cc2[C@H]2COCCN2c2ccn3ncc1c3n2 — organ-to-brain weight ratio (Sprague-Dawley rat, female, liver; oral, 5 mg/kg/day, 4 weeks dosing, end of recovery): 418 ± 48.7%
CC(C)[C@@H]1NC(=O)[C@H](Cc2ccc(O)cc2)NC(=O)[C@H](Cc2ccccc2)NC(=O)[C@H]([C@@H](C)O)NC(=O)[C@@H](Cc2ccc(O)cc2)NC(=O)CSC[C@H](C(=O)NCCOCCOCCOCCOCCOCCOCCC(N)=O)NC(=O)[C@H](C)NC(=O)[C@H](CO)NC(=O)[C@@H]2CCC[C@@H]2NC(=O)[C@H](Cc2c[nH]cn2)NC(=O)[C@H](CCCNC(=N)N)NC(=O)[C@H](Cc2ccc(O)cc2)NC(=O)[C@H]([C@@H](C)O)NC(=O)[C@H](Cc2ccccc2)NC(=O)[C@H]([C@@H](C)O)NC(=O)[C@H](Cc2ccc(O)cc2)NC(=O)[C@H](Cc2ccccc2)NC1=O — time to complete degradation (simulated gastric fluid; pH 1.3, 37 °C, together with: pepsin): < 30 min
Cc1ccc(OCCN(C)C)cc1C(=O)N[C@H](C)c1cc(-c2cnn(CC(C)(C)O)c2)nc2ccccc12 — viability (Vero E6; 3.906 µM): 104% and 111%
CN[C@H](CC(C)C)C(=O)N[C@H]1C(=O)N[C@@H](CC(N)=O)C(=O)N[C@H]2C(=O)N[C@H]3C(=O)N[C@H](C(=O)N[C@H](C(=O)O)c4cc(O)cc(O)c4-c4cc3ccc4O)[C@H](O)c3ccc(c(Cl)c3)Oc3cc2cc(c3O[C@@H]2O[C@H](CO)[C@@H](O)[C@H](O)[C@H]2O[C@H]2C[C@](C)(NCc3ccc(-c4ccc(Cl)cc4)cc3)[C@H](O)[C@H](C)O2)Oc2ccc(cc2Cl)[C@H]1O — half-life (mouse, plasma; intravenous, 75 mg/kg): 6.6 h
CC(C)=CCC/C(C)=C/CCn1cc(CC(P(=O)(O)O)P(=O)(O)O)nn1 — brain drug level (mouse (CD-1), brain; intravenous, 0.5 mg/kg, 2 to 168 h): not detected
C[C@H](NCc1ccc(-c2ccc(C(F)(F)F)cc2)cc1)C(N)=O — compound remaining (metabolic stability; rat, liver microsomes; 1 µM, 30 min, pH 7.4): 60%
CC[C@H](C)[C@H](NC(=O)[C@H](Cc1c[nH]c2ccccc12)NC(=O)c1ccccc1)C(=O)N[C@H](C(=O)N[C@@H](Cc1ccc(O)cc1)C(=O)N[C@@H](CCCCN)C(=O)N[C@@H](Cc1c[nH]c2ccccc12)C(=O)N1CCC[C@@H]1C(=O)N[C@@H](CCCNC(=N)N)C(=O)N[C@@H](CCCCN)C(=O)N[C@H](C(=O)N[C@H](C(=O)N[C@@H](CCCNC(=N)N)C(=O)N[C@@H](Cc1ccc(O)cc1)C(=O)N[C@@H](Cc1c[nH]c2ccccc12)C(=O)N[C@H](C(=O)NCC(=O)N[C@@H](CCCCN)C(=O)N[C@@H](CCCNC(=N)N)C(N)=O)[C@@H](C)O)C(C)C)C(C)C)C(C)C — melting temperature (circular dichroism; phosphate buffer; 30 µM, pH 6.5): > 100 °C
CCCCCCCCCCCCCCCC(=O)NCCCCCCNC(=O)C(CCCCNC(=O)CCN1C(=O)CC(SC[C@H](NC(=O)[C@H](CCCNC(=N)N)NC(=O)CNC(=O)[C@H](CCCCN)NC(=O)[C@@H](NC(=O)[C@H](CC(C)C)NC(=O)[C@H](Cc2c[nH]c3ccccc23)NC(=O)[C@H](C)NC(=O)[C@@H](NC(=O)[C@H](Cc2ccccc2)NC(=O)[C@H](CCC(=O)O)NC(=O)[C@H](CCCCN)NC(=O)[C@H](C)NC(=O)[C@H](C)NC(=O)[C@H](CCC(N)=O)NC(=O)CNC(=O)[C@H](CCC(=O)O)NC(=O)[C@H](CC(C)C)NC(=O)[C@H](Cc2ccc(O)cc2)NC(=O)[C@H](CO)NC(=O)[C@H](CO)NC(=O)[C@@H](NC(=O)[C@H](CC(=O)O)NC(=O)[C@H](CO)NC(=O)[C@@H](NC(=O)[C@H](Cc2ccccc2)NC(=O)[C@@H](NC(=O)CNC(=O)[C@H](CCC(=O)O)NC(=O)CNC(=O)[C@@H](N)Cc2c[nH]cn2)[C@@H](C)O)[C@@H](C)O)C(C)C)[C@@H](C)CC)C(C)C)C(N)=O)C1=O)NC(=O)CCN1C(=O)CC(SC[C@H](NC(=O)[C@H](CCCNC(=N)N)NC(=O)CNC(=O)[C@H](CCCCN)NC(=O)[C@@H](NC(=O)[C@H](CC(C)C)NC(=O)[C@H](Cc2c[nH]c3ccccc23)NC(=O)[C@H](C)NC(=O)[C@@H](NC(=O)[C@H](Cc2ccccc2)NC(=O)[C@H](CCC(=O)O)NC(=O)[C@H](CCCCN)NC(=O)[C@H](C)NC(=O)[C@H](C)NC(=O)[C@H](CCC(N)=O)NC(=O)CNC(=O)[C@H](CCC(=O)O)NC(=O)[C@H](CC(C)C)NC(=O)[C@H](Cc2ccc(O)cc2)NC(=O)[C@H](CO)NC(=O)[C@H](CO)NC(=O)[C@@H](NC(=O)[C@H](CC(=O)O)NC(=O)[C@H](CO)NC(=O)[C@@H](NC(=O)[C@H](Cc2ccccc2)NC(=O)[C@@H](NC(=O)CNC(=O)[C@H](CCC(=O)O)NC(=O)CNC(=O)[C@@H](N)Cc2c[nH]cn2)[C@@H](C)O)[C@@H](C)O)C(C)C)[C@@H](C)CC)C(C)C)C(N)=O)C1=O (stereo partly drawn) — MRT (Kunming mouse, plasma; subcutaneous, 50 nmol/kg): 11.3 ± 0.5 h
CC(C(=O)O)n1nc(Cn2cc3cc(OCC[18F])c(Cl)cc3n2)c2ccccc2c1=O (racemic) — lipophilic radiometabolite (HPLC; nonhuman primate, plasma; 5 min post-injection; baseline: plasma radioactivity): 0%
CC(C)[C@@H]1NC(=O)CNC(=O)[C@H](CC(N)=O)NC(=O)[C@H](CCCNC(=N)N)NC(=O)[C@H](Cc2ccc(O)cc2)NC(=O)[C@H](C(C)C)NC(=O)[C@@H](NC(=O)[C@@H](NC(=O)[C@H](CC(N)=O)NC(=O)[C@H](Cc2c[nH]c3ccccc23)NC(=O)[C@H](C)NC(=O)[C@H](Cc2ccccc2)NC(=O)CNC(=O)[C@H](CCCCN)NC(=O)[C@H](Cc2ccccc2)NC(=O)[C@H](Cc2ccccc2)NC(=O)[C@H](CCCCN)NC(=O)OCC2c3ccccc3-c3ccccc32)C(C)C)CSSC[C@@H](C(=O)N[C@@H](Cc2c[nH]cn2)C(=O)N[C@@H](CCCNC(=N)N)C(=O)N[C@@H](CCCNC(=N)N)C(=O)N[C@@H](C)C(=O)N[C@@H](CC(N)=O)C(N)=O)NC(=O)[C@H](C(C)C)NC(=O)[C@H](CCCNC(=N)N)NC1=O — platelet distribution width (ICR mice, blood; intraductal mammary, 10 mg/kg, day 5): 15.78 ± 0.09%
CCc1nn(C)c2nc(-c3ccc(C(=O)O)cc3)nc(NCc3ccccc3)c12 — concentration (male CD-1 mouse, plasma; oral, 10 mg/kg, 24 h): 50 ng/mL
Cc1ccc(OCC(=O)N(Cc2cccs2)c2ccn[nH]2)cc1 — PCE to total erythrocyte ratio (micronucleus; CD-1 mouse Crl:CD-1(ICR), male, bone marrow; oral, 1000 mg/kg/day, 3 days): 0.63 ± 0.08
CC[C@H](C)[C@H](NC(=O)[C@H](C)NC(=O)[C@H](C)NC(=O)[C@H](CCC(N)=O)NC(=O)CNC(=O)[C@H](CC(C)C)NC(=O)[C@H](Cc1c[nH]cn1)NC(=O)[C@H](CCCCN)NC(=O)[C@H](C)NC(=O)CNC(=O)[C@H](CCCCN)NC(=O)[C@H](CCCNC(=N)N)NC(=O)[C@H](CC(C)C)NC(=O)[C@H](Cc1c[nH]c2ccccc12)NC(=O)[C@H](CCCCN)NC(=O)[C@H](CCCCN)NC(=O)[C@H](Cc1c[nH]c2ccccc12)NC(=O)CN)C(=O)N[C@@H](CCCCN)C(N)=O — acute toxic concentration (zebrafish embryos 4 hpf, E3 medium; 1 h): 25 µM
CSCC[C@H](NC(=O)CNC(=O)[C@H](CCCCN)NC(=O)[C@H](CC(C)C)NC(=O)[C@@H]1CCCN1C(=O)[C@H](CO)NC(=O)[C@H](Cc1c[nH]cn1)NC(=O)[C@H](Cc1c[nH]c2ccccc12)NC(=O)[C@H](CCCNC(=N)N)NC(=O)[C@H](CC(C)C)NC(=O)[C@H](CCCNC(=N)N)NC(=O)[C@H](Cc1c[nH]c2ccccc12)NC(=O)[C@H](CS)NC(=O)CCCCCNC(=O)CN1CCN(CC(=O)O)CCN(CC(=O)O)CCN(CC(=O)O)CC1)C(=O)O [copper-64 labelled] — tissue uptake (BALB/c nude mouse, Huh-7 tumour, small intestine; intravenous, 1 h, ex vivo biodistribution): 5.79 %ID/g
Cc1ccc(N2CCN(C)[C@H](C)C2)cc1C(=O)N[C@H](C)c1cc(-c2cnn(C)c2)nc2ccccc12 — viability (African green monkey cells; 15.62 µM): 99.8%
C=Cc1c(C)c2cc3nc(c(CC(=O)[O-])c4[n-]c(cc5nc(cc1[n-]2)C(C)=C5CC)c(C)c4C(=O)[O-])C(CCC(=O)[O-])C3C.[Cu+2].[Na+].[Na+].[Na+] (stereo not drawn) — serum alkaline phosphatase (Wistar rat, male; oral, 500 mg/kg daily, 28 days): 160 ± 28.5 U/L

Some of these lines once more:
CCc1nn(C)c2nc(-c3ccc(C(=O)O)cc3)nc(NCc3ccccc3)c12 — concentration (male CD-1 mouse, plasma; oral, 10 mg/kg, 24 h): 50 ng/mL
Cc1ccc(OCC(=O)N(Cc2cccs2)c2ccn[nH]2)cc1 — PCE to total erythrocyte ratio (micronucleus; CD-1 mouse Crl:CD-1(ICR), male, bone marrow; oral, 1000 mg/kg/day, 3 days): 0.63 ± 0.08
